Measurements pooled from the literature.
± gives the spread as reported.

| Compound | cell line | assay | setting | IC50 |
| --- | --- | --- | --- | --- |
| Cc1cc(C)c(-n2c[n+](-c3c(C)cc(C)cc3C)c3c2-c2cccc4cccc-3c24)c(C)c1.[Cl][Pd-]([Cl])[CH2]C=Cc1ccccc1 | NTERA2 | cell growth or viability, MTT | 72 h | 1.1 µM |
| C1CCN(C2CCNCC2)CC1.CCCC(CCC)C(=O)[O][Pt]([OH])([Cl])[Cl].CCCCN | A498 | cell growth | 72 h | 8.64 ± 0.95 µM |
| Cc1cc(C)c(-n2ccn(-c3c(C)cc(C)cc3C)c2=[Se])c(C)c1.[Cl][Ag] | human ovarian cancer cells | cell viability, MTT | 72 h | 3.1 ± 1.1 µM |
| COc1ccc(/C=C/C(=O)CC(=O)/C=C/c2ccc(OC)c(OC)c2)cc1OC | LN-229 | cell growth or viability, MTS | 24 h | 19 µM |
| COCC12CN(C)C3C4C(OC)C1C3(C(OC)CC2O)C1CC2(O)C(OC)C(O)C4(O)C1C2OC(=O)c1ccccc1 (stereo not shown) | NCI-H460 | cell growth or viability, MTT |  | 22.3 µM |
| O=C(Cc1ccc2ccccc2c1)N[C@H](Cc1ccccc1)C(=O)N[C@H](Cc1ccc(O)cc1)C(=O)N[C@H](Cc1ccccc1)C(=O)N[C@H](Cc1ccc(O)cc1)C(=O)O | T98G | cell growth or viability, MTT |  | > 500 µg/mL |
| CC[C@H]1OC(=O)[C@H](C(C)C)NC(=O)[C@H](C)OC(=O)[C@@H](C(C)C)NC(=O)[C@@H](C(C)C)OC(=O)[C@H](C(C)C)NC(=O)[C@H](C)OC(=O)[C@@H](C(C)C)NC(=O)[C@@H](C(C)C)OC(=O)[C@H](C(C)C)NC(=O)[C@H](C)OC(=O)[C@@H](C(C)C)NC1=O | SHG-44 | cell growth or viability, SRB | 72 h | 0.3 µM |
| C[C@H]1C(OCCCC[P+](c2ccccc2)(c2ccccc2)c2ccccc2)O[C@@H]2O[C@@]3(C)CCC4[C@H](C)CCC1[C@]42OO3 (stereo partly shown) | J82 | cell growth or viability, MTT | 72 h | 0.189 µM |
| CCN1CC2(COC)CCC(O)C34C5CC6C(OC)CC(O)(C(CC23)C14)C5C6O (stereo not shown) | HBE | cell growth or viability, MTT |  | 21.4 µM |
| C1N2CN3CN1CP(C2)C3.CC(C)OC(=O)C(n1cccn1)n1cccn1.F[P-](F)(F)(F)(F)F.[Cu+] | LoVo | cell growth or viability, MTT | 72 h | 11 µM |
| CNC(=O)c1cc(Oc2ccc(NC(=O)CCC(=O)OC3OC4OC5(C)CCC6C(C)CCC(C3C)C46OO5)cc2)ccn1 (stereo not shown) | L02 | cell growth or viability, MTT | 72 h | 50.8 µM |
| CCOC12C(O)C(OC)C3(O)CC(C1C3OC(=O)c1ccccc1)C13C(OC)CC(O)C4(COC)CN(CC)C1C2C(OC)C43 (stereo not shown) | NCI-H460 | cell growth or viability, MTT |  | 18.3 µM |
| C(#C[P+](c1ccccc1)(c1ccccc1)c1ccccc1)c1ccccc1 | human primary melanocytes and fibroblasts | cytotoxicity |  | > 30 µM |
| CCN1CC2(COC)CCC(O)C34C5CC6C(OC)CC(O)(C5C6OC(C)=O)C(C(OC)C23)C14 (stereo not shown) | NCI-H460 | cell growth or viability, MTT |  | 18.5 µM |
| C[C@H]1C(OCCCCC[P+](c2ccccc2)(c2ccccc2)c2ccccc2)O[C@@H]2O[C@@]3(C)CCC4[C@H](C)CCC1[C@]42OO3 (stereo partly shown) | J82 | cell growth or viability, MTT | 72 h | 0.179 µM |
| CN(C)CC1C(=O)OC2C1CCC1(C)CC1CCC1(C)OC21 (stereo not shown) | GBM6 | cell growth or viability, resazurin |  | 3.2 µM |
| CCOC(=O)[C@H]1Cc2c(cc([N+](=O)[O-])cc2[N+](=O)[O-])[C@H](O)[C@]12C(=O)Nc1ccccc12 | T98G | cell growth or viability, MTT | 24 h | > 50 µM |

| Compound | cell line | assay | setting | IC50 |
| --- | --- | --- | --- | --- |
| CCN1CC2(COC)CCC(O)C34C5CC6C(OC)CC(O)(C5C6O)C(C(OC)C23)C14 (stereo not shown) | HBE | cell growth or viability, MTT |  | 24.3 µM |
| CN(C)C(=O)[C@@H](NC(=O)c1ccccc1-c1ccc(C(F)(F)F)cc1)c1cccc(C(F)(F)F)c1 | KHYG-1 with Ba/F3-MICA cells | NKG2D-mediated cell killing, inhibitor | 6 h | 1.6 ± 0.4 µM |
| C[C@H]1C(OCCCCCCCCC[P+](c2ccccc2)(c2ccccc2)c2ccccc2)O[C@@H]2O[C@@]3(C)CCC4[C@H](C)CCC1[C@]42OO3 (stereo partly shown) | HUVEC | cell viability, MTT | 72 h | 0.258 ± 0.0237 µM |
| [Cl][Au].[Se]=c1n(C2CCCCC2)ccn1C1CCCCC1 | human ovarian cancer cells | cell viability, MTT | 72 h | 2.5 ± 0.6 µM |
| CCCN1CCNC1=[S+][Ag-3]([O][N+](=O)[O-])([P+](c1ccccc1)(c1ccccc1)c1ccccc1)[P+](c1ccccc1)(c1ccccc1)c1ccccc1 | MG-63 | MTT | 24 h | 6.42 µM |
| N[C@H](C(=O)N1CCCC1)C1CCN(c2nccc3c(-c4ncc(Cl)cc4Cl)cccc23)CC1 | human neutrophils | protein citrullination, flow cytometry, measured: citrullinated histone H3 | with: ionomycin 5 µM | 1 µM |
| CC(C)C[C@H](NC(=O)[C@@H](CCCCN)NC(=O)[C@H](Cc1c[nH]cn1)NC(=O)[C@H](CO)NC(=O)[C@H](Cc1c[nH]c2ccccc12)NC(=O)[C@H](Cc1c[nH]cn1)NC(=O)[C@@H]1CCC(=O)N1)C(=O)N[C@@H](CCCNC(=N)N)C(=O)N1CCC[C@H]1C(=O)NCC(N)=O | WPE-1-NB26-3 | cell growth, inhibitor, sulforhodamine B staining | four days | 0.0031 ± 0.0018 µM |
| O=C(Cc1ccc2ccccc2c1)N[C@H](Cc1ccccc1)C(=O)N[C@H](Cc1ccccc1)C(=O)N[C@H](Cc1ccc(OP(=O)(O)O)cc1)C(=O)N[C@H](Cc1ccc(OP(=O)(O)O)cc1)C(=O)O | T98G | cell growth or viability, MTT |  | 357 µg/mL |
| CN(C)C(=O)[C@H]1NC(=O)c2cnccc2-c2ccc(cc2)C(F)(F)CCCC(F)(F)c2cccc1c2 | KHYG-1 with Ba/F3-MICA cells | NKG2D-mediated cell killing, inhibitor | 6 h | 1.6 ± 0.2 µM |
| CC(=O)OC12COC1CC(OC(=O)CCCOc1ccc3c(-c4ccccc4C(=O)OCC(C)C)c4ccc(=O)cc-4oc3c1)C1(C)C(=O)C(OC(=O)C3CC3)C3=C(C)C(OC(=O)C(O)C(C=C(C)C)NC(=O)OC(C)(C)C)CC(O)(C(OC(=O)c4ccccc4)C21)C3(C)C (stereo not shown) | ID8 mouse ovarian cancer | cell growth | concentration not given | 0.846 ± 0.112 µM |
| Cc1ccnc(-c2cc(C)ccn2)c1.[C-]#[O+].[C-]#[O+].[C-]#[O+].[Re+] | KB 3-1 | cell viability |  | 4.3 ± 1.6 µM |
| C[C@H]1C(OCCCCCCCC[P+](c2ccccc2)(c2ccccc2)c2ccccc2)O[C@@H]2O[C@@]3(C)CCC4[C@H](C)CCC1[C@]42OO3 (stereo partly shown) | J82 | cell growth or viability, MTT | 72 h | 0.0618 µM |
| O=C(/C=C/c1ccccc1)c1cc2ccccc2oc1=O | Vero | cell viability | 48 h | 119 µg/mL |
| O=C1CC2(C1)C(=O)[O][Pt]1([Cl])([O]C(=O)C(F)(F)F)([NH][C@@H]3CCCC[C@H]3[NH]1)[O]C2=O | HUVEC | cell growth or viability, MTT |  | > 200 µM |
| C[C@H]1[C@H](OC(=O)CCC(=O)OCCc2ccc(O)cc2)O[C@@H]2O[C@@]3(C)CC[C@H]4[C@H](C)CC[C@@H]1[C@@]24OO3 | C3PV | cell growth or viability, MTT | 24 h | 132 µM |
| CNC(=O)c1cc(Oc2ccc(NC(=O)c3cc(-c4ccc(OC(=O)CCC(=O)OC5OC6OC7(C)CCC8C(C)CCC(C5C)C68OO7)cc4)ccn3)cc2)ccn1 (stereo not shown) | L02 | cell growth or viability, MTT | 72 h | 37.8 µM |
| CC1=CC(C)=[N+]2C1=Cc1ccc(CCC(=O)NCC3C[NH][Pt]([Cl])([Cl])[NH]3)n1[B-]2(F)F (stereo not shown) | KB-3-1 | cell viability, CellTiter-Glo | 72 h, DMSO solvent | 392 ± 35.2 µM |

Some of these lines once more:
| Compound | cell line | assay | setting | IC50 |
| --- | --- | --- | --- | --- |
| CN(C)C(=O)[C@H]1NC(=O)c2cnccc2-c2ccc(cc2)C(F)(F)CCCC(F)(F)c2cccc1c2 | KHYG-1 with Ba/F3-MICA cells | NKG2D-mediated cell killing, inhibitor | 6 h | 1.6 ± 0.2 µM |
| CC(=O)OC12COC1CC(OC(=O)CCCOc1ccc3c(-c4ccccc4C(=O)OCC(C)C)c4ccc(=O)cc-4oc3c1)C1(C)C(=O)C(OC(=O)C3CC3)C3=C(C)C(OC(=O)C(O)C(C=C(C)C)NC(=O)OC(C)(C)C)CC(O)(C(OC(=O)c4ccccc4)C21)C3(C)C (stereo not shown) | ID8 mouse ovarian cancer | cell growth | concentration not given | 0.846 ± 0.112 µM |
| Cc1ccnc(-c2cc(C)ccn2)c1.[C-]#[O+].[C-]#[O+].[C-]#[O+].[Re+] | KB 3-1 | cell viability |  | 4.3 ± 1.6 µM |
